Assay results pooled from the literature.
Lines come from different studies, so protocols differ. Numbers after ± are the reported error.
B1: enzyme E416A (Streptomyces platensis, UniProt A0A0A0V031); chain MQHTTIGDVLREHRRSHPGRTALVDGPVRLTWPELDDRVNRLAGSLAASGIGRGDRIMWLGQNSFRVYELIAAAGKLGAMVCVGYWRWAPPEMEFALRDFDPHLVVWQHQEIHETVARTREALGSDDTARWLRHDSAPQDPDGYEAFLAAGGLADPDLDIDPDSPVLVLYTAAMSGRQCGSLLSHTNLIAMATAAAWLGDIDHTTAFLNSGPMFHIGNHQFWGMPTLLMAGKNVIVRRVVAEEVRDLLVAEECTHAFLMPPTVAEIVRLNRDTGHDLSRLRATVAPHLWEGMATTDTSRFTRSGAAAGRGYGQTELSGFAVTAAYGGPAAGNAGRPGPGLTVRVLDTAGRECAVGEAGEICARGTVVHRGYWNRDEVNAHRFRSGWWHTTDLGRREPDGSLTFLGTTTRMLKSAAANIFPAEVENCIEQHPAVREAAVIGVPNTRWAQDVKAVVVLEPDAGVSEQEIIDHCRPRIASYKKPKSVAFAAALPRTVSGARDYDALDKEYGGGGYPGAATLGPGR
Sequence of UniProt P21729 (whole entry, looked up): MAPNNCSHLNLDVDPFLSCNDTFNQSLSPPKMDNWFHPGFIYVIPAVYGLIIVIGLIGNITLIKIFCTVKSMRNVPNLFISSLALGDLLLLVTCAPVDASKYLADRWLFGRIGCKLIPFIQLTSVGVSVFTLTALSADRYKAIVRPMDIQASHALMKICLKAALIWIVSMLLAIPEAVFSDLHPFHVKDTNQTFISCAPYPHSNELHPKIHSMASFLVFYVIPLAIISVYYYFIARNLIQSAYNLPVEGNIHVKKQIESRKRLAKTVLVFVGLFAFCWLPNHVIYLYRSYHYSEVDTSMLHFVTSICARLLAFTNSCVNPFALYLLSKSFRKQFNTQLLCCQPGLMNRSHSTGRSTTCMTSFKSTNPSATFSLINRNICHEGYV
Sequence of UniProt P09470 (whole entry, looked up): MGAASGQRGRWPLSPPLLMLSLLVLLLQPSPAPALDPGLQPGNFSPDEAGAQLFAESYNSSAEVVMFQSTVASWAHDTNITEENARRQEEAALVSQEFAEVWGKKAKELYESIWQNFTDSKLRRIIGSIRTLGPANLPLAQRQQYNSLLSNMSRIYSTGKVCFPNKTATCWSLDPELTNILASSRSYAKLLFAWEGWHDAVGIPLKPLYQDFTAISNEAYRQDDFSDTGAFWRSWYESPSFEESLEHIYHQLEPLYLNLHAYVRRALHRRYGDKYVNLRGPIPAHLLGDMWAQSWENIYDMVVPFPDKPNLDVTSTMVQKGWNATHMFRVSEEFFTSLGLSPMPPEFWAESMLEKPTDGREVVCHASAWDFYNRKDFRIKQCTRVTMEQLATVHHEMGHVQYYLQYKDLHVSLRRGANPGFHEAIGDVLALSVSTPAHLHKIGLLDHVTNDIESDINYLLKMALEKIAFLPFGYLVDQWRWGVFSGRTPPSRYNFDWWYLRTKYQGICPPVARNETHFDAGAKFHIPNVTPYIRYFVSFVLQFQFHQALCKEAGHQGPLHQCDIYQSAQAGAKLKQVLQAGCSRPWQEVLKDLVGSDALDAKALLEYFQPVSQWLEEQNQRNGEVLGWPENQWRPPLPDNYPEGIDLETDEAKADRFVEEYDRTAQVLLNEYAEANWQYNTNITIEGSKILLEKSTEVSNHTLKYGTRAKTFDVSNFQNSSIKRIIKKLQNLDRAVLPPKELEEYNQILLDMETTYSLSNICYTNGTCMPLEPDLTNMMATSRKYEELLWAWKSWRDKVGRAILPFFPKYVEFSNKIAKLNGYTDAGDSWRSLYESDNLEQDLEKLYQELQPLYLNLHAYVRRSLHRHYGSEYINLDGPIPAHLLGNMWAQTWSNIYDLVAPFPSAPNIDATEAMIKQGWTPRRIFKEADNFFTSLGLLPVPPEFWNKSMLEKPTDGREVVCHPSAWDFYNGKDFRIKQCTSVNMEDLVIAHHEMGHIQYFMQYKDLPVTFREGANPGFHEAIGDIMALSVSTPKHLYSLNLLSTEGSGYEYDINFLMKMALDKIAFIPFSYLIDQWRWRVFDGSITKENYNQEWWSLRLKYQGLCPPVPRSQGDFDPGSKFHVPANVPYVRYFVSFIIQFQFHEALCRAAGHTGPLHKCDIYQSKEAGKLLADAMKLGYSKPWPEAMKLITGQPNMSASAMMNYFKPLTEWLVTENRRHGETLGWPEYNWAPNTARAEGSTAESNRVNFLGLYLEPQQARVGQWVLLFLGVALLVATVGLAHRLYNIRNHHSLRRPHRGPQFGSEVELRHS

CCCC[C@H](NC(=O)CNC(=O)CNC(=O)c1ccc(NN)nc1)C(=O)N[C@H]1CC(=O)NCCCC[C@@H](C(N)=O)NC(=O)[C@H](Cc2c[nH]c3ccccc23)NC(=O)[C@H](CCCNC(=N)N)NC(=O)[C@@H](Cc2ccccc2)NC(=O)[C@H](Cc2c[nH]cn2)NC1=O [technetium-99m labelled]
uptake (C57 mouse, B16/F1 melanoma, intestines; intravenous, 24 h): 0.24 ± 0.17 %ID

N=C(N)NCCC[C@@H]1NC(=O)[C@H](CCCCNC(=O)CCOCCOCCOCCOCCNC(=O)CC[C@H](NC(=O)CCOCCOCCOCCOCCNC(=O)CC[C@H](NC(=O)CN2CCN(CC(=O)O)CCN(CC(=O)O)CCN(CC(=O)O)CC2)C(=O)NCCOCCOCCOCCOCCC(=O)N[C@@H](CCC(=O)NCCOCCOCCOCCOCCC(=O)NCCCC[C@@H]2NC(=O)[C@@H](Cc3ccccc3)NC(=O)[C@H](CC(=O)O)NC(=O)CNC(=O)[C@H](CCCNC(=N)N)NC2=O)C(=O)NCCOCCOCCOCCOCCC(=O)NCCCC[C@@H]2NC(=O)[C@@H](Cc3ccccc3)NC(=O)[C@H](CC(=O)O)NC(=O)CNC(=O)[C@H](CCCNC(=N)N)NC2=O)C(=O)NCCOCCOCCOCCOCCC(=O)NCCCC[C@@H]2NC(=O)[C@@H](Cc3ccccc3)NC(=O)[C@H](CC(=O)O)NC(=O)CNC(=O)[C@H](CCCNC(=N)N)NC2=O)NC(=O)[C@@H](Cc2ccccc2)NC(=O)[C@H](CC(=O)O)NC(=O)CNC1=O [indium-111 labelled]
tissue uptake (female athymic nude mice, kidney; intravenous, 3 µCi, 24 h, U-87 MG glioma xenograft): 4.27 ± 0.22 %ID/g

CC(C)C[C@H](NC(=O)[C@H](CO)NC(=O)[C@H](Cc1c[nH]cn1)NC(=O)CCc1cn(CC(=O)OCC(=O)[C@@]2(O)[C@H](C)C[C@H]3[C@@H]4CCC5=CC(=O)C=C[C@]5(C)[C@@]4(F)[C@@H](O)C[C@@]32C)nn1)C(=O)NCC(=O)N[C@@H](CCCCN)C(=O)N[C@@H](Cc1c[nH]c2ccccc12)C(=O)N[C@@H](CC(C)C)C(=O)NCC(=O)N[C@@H](Cc1c[nH]cn1)C(=O)N1CCC[C@H]1C(=O)N[C@@H](CC(=O)O)C(=O)N[C@@H](CCCCN)C(=O)N[C@@H](Cc1ccccc1)C(=O)O
time to complete dexamethasone release (none; HPLC-UV; acetate buffer; 1 mg/mL, pH 5.5, 37 °C): ~50 h

CCCNC(=O)[C@H](CC(C)C)NC(=O)[C@H](Cc1c[nH]cn1)NC(=O)CNC(=O)[C@@H](NC(=O)[C@H](C)NC(=O)[C@H](Cc1c[nH]c2ccccc12)NC(=O)[C@H](CCC(N)=O)NC(=O)[C@@H](Cc1ccccc1)NC(=O)CCCCCNC(=O)CN1CCN(CC(=O)O)CCN(CC(=O)O)CCN(CC(=O)O)CC1)C(C)C [indium-111 labelled]
tissue uptake (Gastrin-releasing peptide receptor (Mus musculus, UniProt P21729); biodistribution; CF-1 mice, liver; intravenous, 1 h, unblocked): 0.26 ± 0.07 %ID/g

CC(C)C[C@H](NC(=O)[C@@H]1CCCN1C(=O)[C@H](CCCCN)NC(=O)[C@@H](N)CO)C(=O)N1CCC[C@H]1C(=O)N[C@@H](CCC(=O)O)C(=O)N[C@H](C(=O)N[C@H](C(=O)N[C@@H](CC(=O)O)C(=O)N[C@@H](CCC(=O)O)C(=O)N[C@@H](Cc1ccc(O)cc1)C(=O)N[C@@H](Cc1cn(CCOCCOCCOCCNC(=O)CCc2ccc(O)c(CN(CCN(CC(=O)O)Cc3cc(CCC(=O)NCCCC[C@H](NC(=O)N[C@@H](CCC(=O)O)C(=O)O)C(=O)O)ccc3O)CC(=O)O)c2)nn1)C(=O)O)[C@@H](C)O)C(C)C [gallium-68 labelled]
standardized uptake value (NMRI nu/nu mice, LNCaP tumour, pancreas; 10 MBq, high molar activity): 0.23 g/g

CC[C@@]1(O)C(=O)OCc2c1cc1n(c2=O)Cc2cc3cc(OC(=O)CCCC(=O)NCC(=O)N[C@@H](Cc4ccccc4)C(=O)N[C@@H](Cc4ccccc4)C(=O)N[C@@H](Cc4ccc(OP(=O)(O)O)cc4)C(=O)NCCSSCCNC(=O)CCC(=O)N[C@@H](CCC(=O)O)C(=O)N[C@@H](CCCNC(=N)N)C(=O)NCC(=O)N[C@@H](CC(=O)O)C(=O)O)ccc3nc2-1
nanoparticle diameter (HepG2; TEM; culture medium; 100 µM, 0.5 h): 50 to 100 nm

N=C(N)NCCC[C@@H]1NC(=O)[C@H](CCCCNC(=O)CNC(=O)CNC(=O)CNC(=O)CC[C@H](NC(=O)CCOCCOCCOCCOCCNC(=O)CC[C@H](NC(=O)CN2CCN(CC(=O)O)CCN(CC(=O)O)CCN(CC(=O)O)CC2)C(=O)NCCOCCOCCOCCOCCC(=O)N[C@@H](CCC(=O)NCC(=O)NCC(=O)NCC(=O)NCCCC[C@@H]2NC(=O)[C@@H](Cc3ccccc3)NC(=O)[C@H](CC(=O)O)NC(=O)CNC(=O)[C@H](CCCNC(=N)N)NC2=O)C(=O)NCC(=O)NCC(=O)NCC(=O)NCCCC[C@@H]2NC(=O)[C@@H](Cc3ccccc3)NC(=O)[C@H](CC(=O)O)NC(=O)CNC(=O)[C@H](CCCNC(=N)N)NC2=O)C(=O)NCC(=O)NCC(=O)NCC(=O)NCCCC[C@@H]2NC(=O)[C@@H](Cc3ccccc3)NC(=O)[C@H](CC(=O)O)NC(=O)CNC(=O)[C@H](CCCNC(=N)N)NC2=O)NC(=O)[C@@H](Cc2ccccc2)NC(=O)[C@H](CC(=O)O)NC(=O)CNC1=O [indium-111 labelled]
tissue uptake (female athymic nude mice, intestine; intravenous, 3 µCi, 1 h, U-87 MG glioma xenograft): 4.35 ± 1.13 %ID/g

B1 (enzyme E416A)
Vmax (C[C@@]12CCC[C@@](C)(C(=O)OP(=O)(O)OC[C@H]3O[C@@H](n4cnc5c(N)ncnc54)[C@H](O)[C@@H]3O)[C@H]1C[C@@H](O)[C@]13C[C@H]4C[C@H](O[C@@]4(C)C1)[C@@H]23; steady-state kinetics; pH 7.8, 25 °C): 6.42 µmol/min

C=Cc1c(C)c2cc3nc(c4c5[nH]c(cc6nc(cc1[nH]2)C(C)=C6CC)c(C)c5C(=O)C4)[C@@H](CCC(=O)NCC(=O)N1CCC[C@H]1C(=O)N[C@@H](CC(C)C)C(=O)NCC(=O)N[C@@H](Cc1ccccc1)C(=O)N[C@@H](CCCNC(=N)N)C(=O)N[C@H](C(=O)NCC(=O)N[C@@H](CCCCN)C(N)=O)C(C)C)[C@@H]3C
fluorescent cells (OA patient synovial fibroblasts; flow cytometry, refers to: cellular uptake; 1 µM, 6 h): 80%

O=C(O)CC[C@H](NC(=O)N[C@@H](CCCCNC(=O)[C@H](Cc1ccc2ccccc2c1)NC(=O)[C@H]1CC[C@H](CNC(=O)CNC(=O)CNC(=O)CNC(=O)CN2CCN(CC(=O)O)CCN(C(CCC(=O)NCCC[P+](c3ccccc3)(c3ccccc3)c3ccccc3)C(=O)O)CCN(CC(=O)O)CC2)CC1)C(=O)O)C(=O)O (stereo partly drawn) [terbium-161 labelled]
intact radiocomplex (radio-HPLC; tumour-bearing mice, urine; iv, 5 MBq, 10 min): 98.6 ± 1.1%

ACE (Mus musculus, UniProt P09470)
Km (COc1ccc2c(CC(=O)N[C@@H](CCCNC(=N)N)C(=O)N3CCC[C@H]3C(=O)N3CCC[C@H]3C(=O)NCC(=O)N[C@@H](Cc3ccccc3)C(=O)N[C@@H](CO)C(=O)N[C@@H](C)C(=O)N[C@@H](Cc3ccccc3)C(=O)N[C@@H](CCCCNc3ccc([N+](=O)[O-])cc3[N+](=O)[O-])C(=O)O)cc(=O)oc2c1; steady-state kinetics; pH 6.5): 14 µM

CCCC[C@H](NC(=O)CCCCCCCNC(=O)c1ccc(NN)nc1)C(=O)N[C@H]1CC(=O)NCCCC[C@@H](C(N)=O)NC(=O)[C@H](Cc2c[nH]c3ccccc23)NC(=O)[C@H](CCCNC(=N)N)NC(=O)[C@@H](Cc2ccccc2)NC(=O)[C@H](Cc2c[nH]cn2)NC1=O [technetium-99m labelled]
uptake (C57 mouse, B16/F1 melanoma, pancreas; intravenous, 0.5 h): 0.97 ± 0.4 %ID/g

A few entries again:
ACE (Mus musculus, UniProt P09470)
Km (COc1ccc2c(CC(=O)N[C@@H](CCCNC(=N)N)C(=O)N3CCC[C@H]3C(=O)N3CCC[C@H]3C(=O)NCC(=O)N[C@@H](Cc3ccccc3)C(=O)N[C@@H](CO)C(=O)N[C@@H](C)C(=O)N[C@@H](Cc3ccccc3)C(=O)N[C@@H](CCCCNc3ccc([N+](=O)[O-])cc3[N+](=O)[O-])C(=O)O)cc(=O)oc2c1; steady-state kinetics; pH 6.5): 14 µM

CCCC[C@H](NC(=O)CCCCCCCNC(=O)c1ccc(NN)nc1)C(=O)N[C@H]1CC(=O)NCCCC[C@@H](C(N)=O)NC(=O)[C@H](Cc2c[nH]c3ccccc23)NC(=O)[C@H](CCCNC(=N)N)NC(=O)[C@@H](Cc2ccccc2)NC(=O)[C@H](Cc2c[nH]cn2)NC1=O [technetium-99m labelled]
uptake (C57 mouse, B16/F1 melanoma, pancreas; intravenous, 0.5 h): 0.97 ± 0.4 %ID/g
